Published values pooled from the literature.
Parts stem from different laboratories: compare values within a part only.
Sequence of UniProt P62344 (whole entry, looked up): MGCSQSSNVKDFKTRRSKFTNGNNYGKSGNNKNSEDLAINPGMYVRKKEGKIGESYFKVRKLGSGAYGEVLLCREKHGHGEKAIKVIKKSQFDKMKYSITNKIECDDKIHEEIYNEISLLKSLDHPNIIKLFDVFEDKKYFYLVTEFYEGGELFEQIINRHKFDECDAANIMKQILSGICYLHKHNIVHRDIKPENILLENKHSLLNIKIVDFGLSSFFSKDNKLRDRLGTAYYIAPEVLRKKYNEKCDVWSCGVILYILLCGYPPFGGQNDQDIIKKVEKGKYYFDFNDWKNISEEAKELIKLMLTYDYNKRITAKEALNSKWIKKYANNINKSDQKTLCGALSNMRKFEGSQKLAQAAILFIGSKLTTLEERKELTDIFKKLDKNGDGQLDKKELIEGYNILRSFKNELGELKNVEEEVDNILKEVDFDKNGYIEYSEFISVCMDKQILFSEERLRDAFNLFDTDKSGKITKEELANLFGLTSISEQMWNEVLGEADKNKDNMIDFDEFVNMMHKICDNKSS
Sequence of UniProt Q9UKS7 (whole entry, looked up): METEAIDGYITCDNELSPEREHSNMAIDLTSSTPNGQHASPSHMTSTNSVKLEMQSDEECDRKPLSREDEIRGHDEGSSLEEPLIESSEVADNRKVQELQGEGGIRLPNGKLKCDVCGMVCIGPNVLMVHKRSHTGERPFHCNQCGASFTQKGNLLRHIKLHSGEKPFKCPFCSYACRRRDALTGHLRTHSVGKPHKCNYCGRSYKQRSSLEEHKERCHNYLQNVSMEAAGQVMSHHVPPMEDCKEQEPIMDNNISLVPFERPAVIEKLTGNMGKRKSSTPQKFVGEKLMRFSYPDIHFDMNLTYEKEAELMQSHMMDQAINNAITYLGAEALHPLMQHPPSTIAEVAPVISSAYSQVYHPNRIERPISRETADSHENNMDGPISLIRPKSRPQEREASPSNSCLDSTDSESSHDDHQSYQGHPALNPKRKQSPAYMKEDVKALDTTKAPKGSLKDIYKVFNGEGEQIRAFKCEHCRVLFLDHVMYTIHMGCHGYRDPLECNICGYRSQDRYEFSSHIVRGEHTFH
Sequence of UniProt Q96SW2 (whole entry, looked up): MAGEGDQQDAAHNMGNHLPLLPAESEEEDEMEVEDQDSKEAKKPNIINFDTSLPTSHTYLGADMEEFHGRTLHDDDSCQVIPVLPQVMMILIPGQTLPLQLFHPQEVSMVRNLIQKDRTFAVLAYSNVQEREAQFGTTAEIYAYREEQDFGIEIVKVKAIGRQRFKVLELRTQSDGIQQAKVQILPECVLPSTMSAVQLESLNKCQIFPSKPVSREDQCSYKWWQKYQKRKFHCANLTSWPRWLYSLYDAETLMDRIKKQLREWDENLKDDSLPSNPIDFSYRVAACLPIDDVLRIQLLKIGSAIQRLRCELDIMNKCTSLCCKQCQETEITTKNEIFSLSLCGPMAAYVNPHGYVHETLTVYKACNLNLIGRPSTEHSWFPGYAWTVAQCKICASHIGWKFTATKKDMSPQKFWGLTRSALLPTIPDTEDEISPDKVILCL

Sample 1 — mode: agonist
Target: Beta-1 adrenergic receptor (ADRB1, Homo sapiens, UniProt P08588)
Sequence of UniProt P08588 (whole entry, looked up): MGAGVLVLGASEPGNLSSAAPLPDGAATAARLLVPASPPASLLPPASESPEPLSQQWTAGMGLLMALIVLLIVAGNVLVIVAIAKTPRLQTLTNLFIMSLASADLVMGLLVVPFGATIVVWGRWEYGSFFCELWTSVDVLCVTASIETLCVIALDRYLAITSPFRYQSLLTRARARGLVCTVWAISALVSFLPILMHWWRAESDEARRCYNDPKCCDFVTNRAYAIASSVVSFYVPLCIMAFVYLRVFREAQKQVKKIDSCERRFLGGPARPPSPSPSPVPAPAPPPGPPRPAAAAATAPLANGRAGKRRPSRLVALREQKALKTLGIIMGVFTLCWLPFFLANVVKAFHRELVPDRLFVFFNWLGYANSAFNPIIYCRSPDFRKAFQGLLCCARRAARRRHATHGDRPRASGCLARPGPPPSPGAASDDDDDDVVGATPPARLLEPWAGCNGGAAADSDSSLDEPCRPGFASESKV
`CC[C@H](C)C(NC(=O)[C@H](CCC(=O)O)NC(=O)[C@@H](NC(C)=O)C(C)C)C(=O)N[C@@H](CC(=O)O)C(=O)Nc1ccc2c(C)cc(=O)oc2c1` (some centres unmarked) has an EC50 of ≥ 100 µM.
`NCCc1cc(=O)oc2cc(O)c(Cl)cc12` gave an EC50 of ≥ 100 µM.
For `NCCc1c[nH]c2ccc(O)cc12`, the EC50 was ≥ 100 µM.

Single results of other studies
POLQ ATPase domain: DNA polymerase theta, ATPase domain (POLQ, Homo sapiens, UniProt O75417)
Sequence of UniProt O75417 (whole entry, unmodified, looked up): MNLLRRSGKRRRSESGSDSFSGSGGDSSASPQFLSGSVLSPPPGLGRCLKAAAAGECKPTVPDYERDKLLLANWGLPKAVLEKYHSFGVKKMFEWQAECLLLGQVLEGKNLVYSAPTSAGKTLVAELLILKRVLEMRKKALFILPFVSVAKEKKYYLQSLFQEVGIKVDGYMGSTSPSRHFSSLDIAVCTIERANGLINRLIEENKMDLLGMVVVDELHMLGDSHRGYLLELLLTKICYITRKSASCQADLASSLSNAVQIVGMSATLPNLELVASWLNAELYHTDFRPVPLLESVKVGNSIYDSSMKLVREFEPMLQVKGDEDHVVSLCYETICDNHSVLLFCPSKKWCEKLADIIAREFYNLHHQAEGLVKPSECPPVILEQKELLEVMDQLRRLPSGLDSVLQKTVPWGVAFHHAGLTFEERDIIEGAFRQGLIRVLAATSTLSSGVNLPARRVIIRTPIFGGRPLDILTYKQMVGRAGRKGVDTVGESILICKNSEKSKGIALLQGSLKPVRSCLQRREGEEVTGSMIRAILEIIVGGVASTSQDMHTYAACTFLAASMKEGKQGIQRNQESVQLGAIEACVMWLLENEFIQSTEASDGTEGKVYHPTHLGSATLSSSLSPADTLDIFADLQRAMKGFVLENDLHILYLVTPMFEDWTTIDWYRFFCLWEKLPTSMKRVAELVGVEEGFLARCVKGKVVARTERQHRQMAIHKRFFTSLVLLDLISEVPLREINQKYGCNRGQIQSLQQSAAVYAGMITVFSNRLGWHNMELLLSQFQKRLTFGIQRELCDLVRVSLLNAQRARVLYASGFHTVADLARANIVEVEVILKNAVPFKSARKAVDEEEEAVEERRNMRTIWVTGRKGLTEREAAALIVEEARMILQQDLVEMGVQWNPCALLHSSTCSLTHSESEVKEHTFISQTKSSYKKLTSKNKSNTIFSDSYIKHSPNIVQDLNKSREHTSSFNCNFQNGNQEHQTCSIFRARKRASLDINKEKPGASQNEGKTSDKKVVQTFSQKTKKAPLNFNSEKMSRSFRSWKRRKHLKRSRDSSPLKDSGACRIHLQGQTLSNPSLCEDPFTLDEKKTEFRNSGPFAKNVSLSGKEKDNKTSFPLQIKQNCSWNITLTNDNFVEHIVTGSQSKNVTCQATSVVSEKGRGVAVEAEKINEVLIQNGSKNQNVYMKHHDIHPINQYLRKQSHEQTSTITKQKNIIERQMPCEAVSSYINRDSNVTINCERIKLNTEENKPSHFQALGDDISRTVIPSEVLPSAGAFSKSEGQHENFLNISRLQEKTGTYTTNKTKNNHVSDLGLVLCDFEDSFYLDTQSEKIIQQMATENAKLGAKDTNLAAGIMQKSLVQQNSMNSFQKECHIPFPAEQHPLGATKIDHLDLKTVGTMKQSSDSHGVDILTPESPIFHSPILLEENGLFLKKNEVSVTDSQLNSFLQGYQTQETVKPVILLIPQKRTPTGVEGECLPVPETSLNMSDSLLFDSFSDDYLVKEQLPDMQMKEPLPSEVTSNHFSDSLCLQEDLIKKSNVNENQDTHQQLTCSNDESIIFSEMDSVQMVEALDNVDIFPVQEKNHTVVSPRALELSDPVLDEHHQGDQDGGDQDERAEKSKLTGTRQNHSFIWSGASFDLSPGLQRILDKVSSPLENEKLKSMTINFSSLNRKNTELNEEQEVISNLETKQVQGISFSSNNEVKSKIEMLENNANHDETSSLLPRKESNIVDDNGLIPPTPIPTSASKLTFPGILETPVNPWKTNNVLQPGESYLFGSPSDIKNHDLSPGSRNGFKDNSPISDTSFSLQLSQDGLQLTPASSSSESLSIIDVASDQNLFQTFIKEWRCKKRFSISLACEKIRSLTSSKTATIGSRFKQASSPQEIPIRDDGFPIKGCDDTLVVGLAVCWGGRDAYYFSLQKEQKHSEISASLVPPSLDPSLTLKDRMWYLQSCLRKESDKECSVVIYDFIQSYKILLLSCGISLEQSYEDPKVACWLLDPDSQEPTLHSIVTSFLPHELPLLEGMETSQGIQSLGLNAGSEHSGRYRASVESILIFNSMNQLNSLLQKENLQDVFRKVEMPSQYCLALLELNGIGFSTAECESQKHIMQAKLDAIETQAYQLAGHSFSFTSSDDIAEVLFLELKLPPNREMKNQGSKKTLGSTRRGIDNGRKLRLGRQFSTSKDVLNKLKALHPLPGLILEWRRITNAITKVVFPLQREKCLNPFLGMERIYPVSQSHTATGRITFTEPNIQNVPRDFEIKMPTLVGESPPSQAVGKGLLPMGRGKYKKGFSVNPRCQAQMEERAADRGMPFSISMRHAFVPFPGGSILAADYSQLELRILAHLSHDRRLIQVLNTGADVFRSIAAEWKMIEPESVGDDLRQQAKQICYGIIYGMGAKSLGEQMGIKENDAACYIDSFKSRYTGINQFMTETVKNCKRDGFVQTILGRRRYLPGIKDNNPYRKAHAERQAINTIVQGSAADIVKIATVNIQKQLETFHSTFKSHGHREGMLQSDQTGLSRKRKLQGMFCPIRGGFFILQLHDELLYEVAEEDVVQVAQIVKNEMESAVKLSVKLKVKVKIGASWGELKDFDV
The remaining binding of `C[C@H](c1cccc(C#N)c1)n1cc(Cl)cc(C(N)=O)c1=N` is reported as 86% (CDPK1 (Plasmodium falciparum, UniProt P62344); cell-free assay, competition with immobilised ligand; 1 µM).
The remaining activity of `CCC1(C2=NCCN2)Cc2ccccc2O1` (centres unmarked) is reported as 100% (POLQ ATPase domain; enzyme activity, inhibitor; 77 µM; reference: untreated).
The protein remaining of `O=C1CCC(N2Cc3c(ccc4c3OCC43CCN(Cc4ccccc4)CC3(F)F)C2=O)C(=O)N1` (centres unmarked) is reported as 101% (CRBN/Zinc finger protein Helios (Homo sapiens, UniProt Q96SW2+Q9UKS7); degrader, HiBiT; HEK293; 0.1694 nM).
With `C[C@]12C=CC(=O)C=C1CCC1C2CC[C@]2(C)C(=O)CCC12` (some centres unmarked) the remaining compound was 60.8% (human, microsomes or S9; 2 µM, 0.5 h).
`CC(C)c1c(CN(C)C(C)Cc2ccccc2)n(C)n(-c2ccccc2)c1=O` (centres unmarked) has a remaining activity of 99.8% (POLQ ATPase domain; enzyme activity, inhibitor; 77 µM; reference: untreated).

A few entries again (single results of other studies):
The remaining activity of `CCC1(C2=NCCN2)Cc2ccccc2O1` (centres unmarked) is reported as 100% (POLQ ATPase domain; enzyme activity, inhibitor; 77 µM; reference: untreated).
